{"data": "Published values gathered from unrelated publications", "note": "Compare with care: the assays were run in different laboratories. Several values in a cell are separate wells, animals, samples, runs or records. Numbers after ± are the reported error."}
{"Compound": "Oc1ccccc1-c1n[nH]cc1-c1ccnc2ccccc12", "target": "PKH3 (Candida albicans)", "assay": "kinase binding, MIB/MS competition", "system": "Candida albicans lysate", "conditions": "10 µM", "scale": "baseline: DMSO", "endpoint": "log2 fold change", "result": 0.32}
{"Compound": "C[n+]1cccc2cc(C=NNC(=O)c3ccc4ccc5ccc(C(=O)NN=Cc6ccc7c(ccc[n+]7C)c6)nc5c4n3)ccc21.[I-].[I-]", "target": "G-quadruplex DNA 22CTA antiparallel", "assay": "UV melting", "conditions": "6 µM, K10 buffer, together with: DNA 3 µM", "endpoint": "delta Tm", "result": "> 40 °C"}
{"Compound": "CC(Nc1nc(N2CCCC2)nc2ccccc12)c1ccccc1 (centres unmarked)", "target": "transportin-1/2", "assay": "FUS nuclear import, high content imaging", "system": "HeLa Kyoto reporter", "conditions": "100 µM, 2 h", "endpoint": "cells with nuclear reporter", "result": "99.5%"}
{"Compound": "CCCCCCCC(=O)OC[C@H](COP(=O)(O)O[C@@H]1[C@H](O)[C@H](O)[C@@H](OP(=O)(O)O)[C@H](OP(=O)(O)O)[C@H]1O)OC(=O)CCCCCCC", "target": "Kv7.2/Kv7.3(EEE) mutant channel", "assay": "activator", "conditions": "model 5", "endpoint": "cooperativity factor", "result": 5.36}
{"Compound": "NCCOc1cc(NC(=O)c2cc(OCc3ccc(F)cc3)cc(C(=O)Nc3cc(OCCN)c4ccccc4n3)n2)nc2ccccc12", "target": "c-kit1 G-quadruplex DNA", "assay": "FRET melting", "conditions": "1 µM, pH 7.4, together with: 60 mM potassium", "endpoint": "ΔTm", "result": "15.5 ± 0.6 K"}
{"Compound": "c1coc(-c2n[nH]cc2-c2ccnc3ccccc23)c1", "target": "PKH3 (Candida albicans)", "assay": "kinase binding, MIB/MS competition", "system": "Candida albicans lysate", "conditions": "10 µM", "scale": "baseline: DMSO", "endpoint": "log2 fold change", "result": -0.12}
{"Compound": "CN(C)CCOc1cc(NC(=O)c2cc(Cl)cc(C(=O)Nc3cc(OCCN(C)C)c4ccccc4n3)n2)nc2ccccc12", "target": "c-kit1 G-quadruplex DNA", "assay": "FRET melting", "conditions": "1 µM, pH 7.4, together with: 60 mM potassium", "endpoint": "ΔTm", "result": "19.6 ± 0.4 K"}
{"Compound": "C#Cc1cc(-c2cc(Nc3nc(N[C@@H](C)c4ccc(F)cn4)ncc3Cl)n[nH]2)ccc1C=O", "target": "FGFR1OP-FGFR1 kinase fusion, human", "assay": "kinase activity, inhibitor", "conditions": "0.2 µM", "endpoint": "inhibition", "result": "67.5% and 68.5%"}
